Experimental data of several laboratories.
Parts stem from different laboratories: compare values within a part only.

Set 1
Target: Prothrombin, mature alpha-thrombin (F2, Homo sapiens, UniProt P00734)
Technique: aptamer microarray, sandwich
Molecule type: DNA with 2'F-ANA
Matrix: in vitro
Tested at: 200 nM
Notes: whole 15-mer aptamer, many near background
With: Cy3 exosite-II aptamer, 400 nM
Direction: higher = stronger binding
Sequence: GGTTGGTGTGGTTGG
`2'F-ANA at 3 5 7 10 13`: “mean fluorescence intensity” 56.1 a.u.
Under “mean fluorescence intensity”, `2'F-ANA at 1 4 5 6 7 15` is recorded as 53 a.u.
For `2'F-ANA at 1 9 12`, “mean fluorescence intensity” read 417 a.u.
`2'F-ANA at 3 4 5 10 11 12 13 14`: “mean fluorescence intensity” 48.8 a.u.
`2'F-ANA at 2 4 6 8 9 10 11 13 14 15` — result for “mean fluorescence intensity”: 58.4 a.u.
`2'F-ANA at 1 3 5 6 7 9 14 15`: “mean fluorescence intensity” 45.3 a.u.
`2'F-ANA at 3 5 6 7 8 9 13 14 15` — result for “mean fluorescence intensity”: 52.5 a.u.
`2'F-ANA at 1 4 5 6 8 9 10 12 13 14 15`: “mean fluorescence intensity” 47.3 a.u.
For `2'F-ANA at 1 4 5 7 9 10 11 12 13 14`, “mean fluorescence intensity” read 45.2 a.u.
For `2'F-ANA at 1 6 7 8 10 11 12 14 15`, “mean fluorescence intensity” read 50.2 a.u.
For `2'F-ANA at 2 6 9 11 12 13 14 15`, “mean fluorescence intensity” read 126 a.u.
For `2'F-ANA at 2 3 4 5 6 8 9 10 12 14`, “mean fluorescence intensity” read 52.8 a.u.
`2'F-ANA at 1 5 7 8 11 14`: “mean fluorescence intensity” 45.3 a.u.
`2'F-ANA at 3 4 6 8 9 10 11 13 14` — result for “mean fluorescence intensity”: 143 a.u.
Under “mean fluorescence intensity”, `2'F-ANA at 5 6 7 8 9 10 12 13 14` is recorded as 48 a.u.
`2'F-ANA at 2 5 7 11 13 14 15` — result for “mean fluorescence intensity”: 49.1 a.u.
`2'F-ANA at 2 3 4 8 9 11 12 14`: “mean fluorescence intensity” 302 a.u.

Set 2
Target: Histone acetyltransferase KAT6A, winged helix 1, GST fusion (KAT6A, Homo sapiens, UniProt Q92794, residues 1-85)
Technique: protein binding microarray
Molecule type: double-stranded DNA, one strand shown
Matrix: in vitro
Tested at: not given
Notes: 8-mer, flanks averaged, mean of 2 arrays, mostly near background
Relative to: not given
Direction: higher = stronger binding
Target sequence (chain): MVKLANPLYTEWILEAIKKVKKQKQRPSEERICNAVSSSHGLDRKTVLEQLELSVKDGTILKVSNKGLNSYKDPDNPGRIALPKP
`CAGTCGAC` gave an E-score of -0.0177.
The E-score of `TCTGCACA` is reported as -0.169.
`TAGTGACA` has an E-score of -0.106.
`GCTCACGA` gave an E-score of 0.00239.
For `TATATCCA`, the E-score was -0.244.
`CCCTCGAC` gave an E-score of -0.0678.
For `AAGATAAA`, the E-score was -0.0593.
`AATGTAAA` gave an E-score of -0.0252.
The E-score of `AGTGTGTG` is reported as -0.188.
`CATCCTTA` has an E-score of -0.203.
`CCTCTATC` gave an E-score of -0.278.
The E-score of `CGCAGTTC` is reported as 0.247.
`GATAAAAA` has an E-score of -0.095.
`ACTCGCAC` gave an E-score of 0.149.
With `ATGTCCCC` the E-score was -0.0176.
`ACATCACA` gave an E-score of -0.232.
For `AAGCAAGC`, the E-score was -0.0392.
`AAGGAAAC` has an E-score of -0.177.
For `AAGGACTG`, the E-score was -0.246.
The E-score of `ATTAGGCA` is reported as -0.0817.
With `CCATTGAG` the E-score was 0.0767.
With `ATTAGTGA` the E-score was -0.0361.
`CGCGAATC` has an E-score of 0.28.
`AACACTCC` has an E-score of -0.0191.
`ACCGGGCT` gave an E-score of 0.231.

Set 3
Target: Interferon regulatory factor 5, full length, phosphomimetic (IRF5, Homo sapiens, UniProt Q13568-2, residues 1-514, S451D/S453D/S456D/S462D)
Technique: protein-binding microarray
Molecule type: double-stranded DNA, one strand shown
Matrix: in vitro
Tested at: 940 nM top
Notes: 60-bp whole probe
With: salmon DNA 0.4 mg/ml
Relative to: random background probes
Direction: higher = stronger binding
Constant ends, left off below: GCCTAGCAC … GTCTTGATTCGCTTGACGCTGCTG
For `TTACAATTTGCTTTAGTCATGTGCTAG`, “fitted relative affinity” read 0.299 z-score.
`TTAGGTATCGGTTATCGGTTAGTGCTA`: “fitted relative affinity” 9.27 z-score.
For `TTAGGTATAGGGTTTCGGTTAGTGCTA`, “fitted relative affinity” read 4.67 z-score.
Under “fitted relative affinity”, `GACGGTTTCGTTCTCCTGACGTGCTAG` is recorded as 9.12 z-score.
`GACGGTCTCGGCCTGGGGACGTGCTAG`: “fitted relative affinity” 1.41 z-score.
Under “fitted relative affinity”, `TTAGGTATCCAACTGCTTTAGTGCTAG` is recorded as -0.15 z-score.
For `TTGGAACTGAGTTTCGATTAGTGCTAG`, “fitted relative affinity” read 7.5 z-score.
`GACGGTCTCGGGCTGGGGACGTGCTAG`: “fitted relative affinity” 1.06 z-score.
`GACGATATCAGTTACGAGACGTGCTAG`: “fitted relative affinity” 0.0421 z-score.
For `GACGTTATCGGACTGGGGACGTGCTAG`, “fitted relative affinity” read -0.292 z-score.
`GACGGACTTGACTTTCGGGACGTGCTA`: “fitted relative affinity” 0.473 z-score.
Under “fitted relative affinity”, `GACGGTCTCCTTCTCCTGATGTGCTAG` is recorded as 0.48 z-score.
`GACGGTATCGGGTTTCGGTACGTGCTA`: “fitted relative affinity” 7.22 z-score.
`CTCGGGACAGGCACTCTACGGTGCTAG` — result for “fitted relative affinity”: -0.467 z-score.
`GACGGTCTAGGTATCGGGACGTGCTAG` — result for “fitted relative affinity”: 0.868 z-score.
For `TTAGGCTTCGGGTTTCGGTTAGTGCTA`, “fitted relative affinity” read 5.77 z-score.

Set 4
Target: Ras GTPase-activating protein-binding protein 1, full length (G3BP1, Homo sapiens, UniProt Q13283)
Chain of UniProt Q13283 (whole entry, looked up): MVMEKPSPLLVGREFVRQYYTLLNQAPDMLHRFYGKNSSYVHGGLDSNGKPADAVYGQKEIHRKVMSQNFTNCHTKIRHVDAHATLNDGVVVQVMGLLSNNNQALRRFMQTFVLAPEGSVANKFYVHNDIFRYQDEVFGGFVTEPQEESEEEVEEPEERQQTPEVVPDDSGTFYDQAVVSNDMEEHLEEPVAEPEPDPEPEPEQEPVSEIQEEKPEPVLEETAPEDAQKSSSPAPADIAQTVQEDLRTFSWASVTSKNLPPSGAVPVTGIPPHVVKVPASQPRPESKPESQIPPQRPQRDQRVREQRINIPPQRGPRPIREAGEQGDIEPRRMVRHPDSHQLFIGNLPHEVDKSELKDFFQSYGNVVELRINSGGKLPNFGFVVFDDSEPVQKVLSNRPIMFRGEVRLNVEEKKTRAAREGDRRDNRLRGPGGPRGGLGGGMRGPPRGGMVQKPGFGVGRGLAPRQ
Technique: RNA Bind-n-Seq
Molecule type: RNA
Matrix: in vitro
Tested at: 200 nM
Notes: whole 134-nt RNA, ends assumed
With: 150 mM LiCl
Relative to: input library
Direction: higher = stronger binding
All molecules: 7-deaza-guanosine replaces G
Constant ends, left off below: GGGAGUUCUACAGUCCGACGAUC … UGGAAUUCUCGGGUGUCAAGG
With `CUGUGCUACACAUCGUAUGUACCGAAUCGGGGAAAAAAAGGGGAAAAAAAGGGAAAAAAAGGAAAGUAUUAUGUUACGCCGUUCGGAUCU` the log2 enrichment was 0.291.
With `UGGCCCUGGUGGCAUGCGGGGAGGAAGAGGUGGCCUCAUGGAUCGUGGUGGCCCCGGUGGAAUGUUCAGAGGUGGCCGUGGUGGAGACAG` the log2 enrichment was 0.3.
For `CCUGUGCUACACAUCGUAUGUACCGAAUCGGAAAAAAGGGAAAAAAGGGGAAAAAAGGGGAAAGUAUUAUGUUACGCCGUUCGGAUCUGC`, the log2 enrichment was 0.299.
`UCCUGUGCUACACAUCGUAUGUACCGAAUCGGGUUUUUUUGGGUUUGGGUUUUUUUGGGAAAGUAUUAUGUUACGCCGUUCGGAUCUGCA` gave a log2 enrichment of 0.334.
`GCAGGAAGUAAAAACAAAUGGAAAUGCUUCGGAUAGUGGCAGGCGUGGGGGUUGCUAAGGAAAGGGUGGGAUGGGAGUGGGUAAAGAGUU` has a log2 enrichment of 0.018.
The log2 enrichment of `CUCAAGUCCUGUGCUACACAUCGUAUGUACCGAAUCGGGAAGGAAGGGAAGGGAAAGUAUUAUGUUACGCCGUUCGGAUCUGCACUUCCA` is reported as -0.176.
For `CAAGUCCUGUGCUACACAUCGUAUGUACCGAAUCGGGUUUGGUUUGGGGUUUGGGGAAAGUAUUAUGUUACGCCGUUCGGAUCUGCACUU`, the log2 enrichment was -1.42.
With `CCUGUGCUACACAUCGUAUGUACCGAAUCGGGGUGGGGUUUUUUUGGGGUUUUUUUGGGGAAAGUAUUAUGUUACGCCGUUCGGAUCUGC` the log2 enrichment was 0.702.

For quick reference, copied from above (set 2):
`AATGTAAA` gave an E-score of -0.0252.
`CATCCTTA` has an E-score of -0.203.
The E-score of `AGTGTGTG` is reported as -0.188.
For `AAGATAAA`, the E-score was -0.0593.
`GATAAAAA` has an E-score of -0.095.
With `ATTAGTGA` the E-score was -0.0361.
`ACTCGCAC` gave an E-score of 0.149.
For `TATATCCA`, the E-score was -0.244.
